Experimental data pooled from the literature.
± gives the spread as reported.
EZH2: Histone-lysine N-methyltransferase EZH2 (EZH2, Homo sapiens, UniProt Q15910)
Chain of UniProt Q15910 (whole entry, looked up): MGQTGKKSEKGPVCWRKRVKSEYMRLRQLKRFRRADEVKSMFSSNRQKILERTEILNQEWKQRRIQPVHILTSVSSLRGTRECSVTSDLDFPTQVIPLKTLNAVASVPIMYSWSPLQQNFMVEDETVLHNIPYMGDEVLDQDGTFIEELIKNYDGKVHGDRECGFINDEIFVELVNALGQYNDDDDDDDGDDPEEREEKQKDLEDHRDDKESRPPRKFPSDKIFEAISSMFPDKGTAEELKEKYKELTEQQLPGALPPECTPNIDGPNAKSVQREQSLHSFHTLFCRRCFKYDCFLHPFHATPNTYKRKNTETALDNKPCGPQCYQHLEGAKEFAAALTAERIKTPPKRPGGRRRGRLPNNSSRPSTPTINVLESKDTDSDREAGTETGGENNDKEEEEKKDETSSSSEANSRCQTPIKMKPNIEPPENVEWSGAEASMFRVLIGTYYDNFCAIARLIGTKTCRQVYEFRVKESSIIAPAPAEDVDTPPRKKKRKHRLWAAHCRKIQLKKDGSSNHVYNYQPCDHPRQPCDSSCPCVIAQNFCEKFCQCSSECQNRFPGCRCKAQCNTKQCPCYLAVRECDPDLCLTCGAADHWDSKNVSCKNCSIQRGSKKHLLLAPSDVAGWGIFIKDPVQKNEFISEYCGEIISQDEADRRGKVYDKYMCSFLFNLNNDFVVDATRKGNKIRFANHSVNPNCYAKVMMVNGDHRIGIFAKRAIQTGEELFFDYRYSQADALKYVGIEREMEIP
GLP1R: Glucagon-like peptide 1 receptor (GLP1R, Homo sapiens, UniProt P43220)
Chain of UniProt P21554 (whole entry, unmodified, looked up): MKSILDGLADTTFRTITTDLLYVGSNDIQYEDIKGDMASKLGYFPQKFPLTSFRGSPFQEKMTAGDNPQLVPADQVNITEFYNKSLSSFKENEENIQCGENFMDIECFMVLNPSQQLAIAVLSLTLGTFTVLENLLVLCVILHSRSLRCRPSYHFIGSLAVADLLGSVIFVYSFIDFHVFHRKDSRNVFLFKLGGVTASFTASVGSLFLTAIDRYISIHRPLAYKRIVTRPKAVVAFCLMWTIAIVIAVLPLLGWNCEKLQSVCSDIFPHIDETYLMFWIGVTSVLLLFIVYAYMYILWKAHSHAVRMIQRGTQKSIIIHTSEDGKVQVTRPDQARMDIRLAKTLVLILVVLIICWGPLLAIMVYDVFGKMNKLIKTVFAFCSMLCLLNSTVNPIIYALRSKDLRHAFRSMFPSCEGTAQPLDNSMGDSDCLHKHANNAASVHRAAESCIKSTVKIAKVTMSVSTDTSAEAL
Chain of UniProt P43220 (whole entry, looked up): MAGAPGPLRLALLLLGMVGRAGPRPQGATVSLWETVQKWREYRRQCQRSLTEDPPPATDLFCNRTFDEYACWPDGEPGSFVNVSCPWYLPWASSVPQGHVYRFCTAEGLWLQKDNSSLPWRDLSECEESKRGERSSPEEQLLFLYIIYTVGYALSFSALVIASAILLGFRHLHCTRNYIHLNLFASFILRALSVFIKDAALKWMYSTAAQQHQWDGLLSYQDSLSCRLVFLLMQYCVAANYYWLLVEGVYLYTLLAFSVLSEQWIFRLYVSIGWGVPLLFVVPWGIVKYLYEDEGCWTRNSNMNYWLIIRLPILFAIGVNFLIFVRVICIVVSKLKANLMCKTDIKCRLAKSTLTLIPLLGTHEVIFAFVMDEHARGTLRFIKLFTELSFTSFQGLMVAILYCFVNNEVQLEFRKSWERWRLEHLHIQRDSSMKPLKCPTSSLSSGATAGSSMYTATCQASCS
Chain of UniProt P34972 (whole entry, unmodified, looked up): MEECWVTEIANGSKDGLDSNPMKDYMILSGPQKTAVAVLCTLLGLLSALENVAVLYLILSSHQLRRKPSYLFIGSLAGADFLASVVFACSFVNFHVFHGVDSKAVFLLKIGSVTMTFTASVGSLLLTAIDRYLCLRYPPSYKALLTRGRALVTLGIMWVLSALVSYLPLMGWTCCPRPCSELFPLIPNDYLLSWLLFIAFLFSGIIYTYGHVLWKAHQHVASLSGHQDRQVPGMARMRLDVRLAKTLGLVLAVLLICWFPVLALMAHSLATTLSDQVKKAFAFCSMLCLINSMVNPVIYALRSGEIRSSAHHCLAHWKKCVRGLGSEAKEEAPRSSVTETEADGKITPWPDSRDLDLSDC
Chain of UniProt P55211 (whole entry, looked up): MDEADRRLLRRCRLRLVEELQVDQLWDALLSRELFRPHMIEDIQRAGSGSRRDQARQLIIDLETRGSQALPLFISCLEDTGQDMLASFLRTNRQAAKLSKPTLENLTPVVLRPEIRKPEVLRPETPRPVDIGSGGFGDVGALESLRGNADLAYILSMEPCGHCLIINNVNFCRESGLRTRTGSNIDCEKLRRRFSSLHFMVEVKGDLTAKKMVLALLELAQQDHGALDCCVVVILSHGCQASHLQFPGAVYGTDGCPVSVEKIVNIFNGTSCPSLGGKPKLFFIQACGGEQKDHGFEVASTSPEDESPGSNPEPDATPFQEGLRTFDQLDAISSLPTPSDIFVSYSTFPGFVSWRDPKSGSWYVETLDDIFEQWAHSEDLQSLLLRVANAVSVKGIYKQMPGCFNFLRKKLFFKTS
Chain of UniProt P41586 (whole entry, looked up): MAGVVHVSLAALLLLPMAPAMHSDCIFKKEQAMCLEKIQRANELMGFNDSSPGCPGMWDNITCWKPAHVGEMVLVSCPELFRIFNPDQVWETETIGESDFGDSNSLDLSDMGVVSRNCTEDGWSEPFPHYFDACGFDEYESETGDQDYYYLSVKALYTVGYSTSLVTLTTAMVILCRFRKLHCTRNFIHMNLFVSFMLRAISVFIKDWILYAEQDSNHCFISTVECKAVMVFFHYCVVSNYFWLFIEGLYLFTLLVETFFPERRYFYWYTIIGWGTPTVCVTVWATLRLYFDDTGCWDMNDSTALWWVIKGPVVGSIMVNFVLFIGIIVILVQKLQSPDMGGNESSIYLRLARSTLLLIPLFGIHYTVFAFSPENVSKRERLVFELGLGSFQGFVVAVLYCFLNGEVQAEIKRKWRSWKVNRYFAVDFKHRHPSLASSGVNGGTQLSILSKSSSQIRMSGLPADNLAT
Chain of UniProt Q8IYT8 (whole entry, looked up): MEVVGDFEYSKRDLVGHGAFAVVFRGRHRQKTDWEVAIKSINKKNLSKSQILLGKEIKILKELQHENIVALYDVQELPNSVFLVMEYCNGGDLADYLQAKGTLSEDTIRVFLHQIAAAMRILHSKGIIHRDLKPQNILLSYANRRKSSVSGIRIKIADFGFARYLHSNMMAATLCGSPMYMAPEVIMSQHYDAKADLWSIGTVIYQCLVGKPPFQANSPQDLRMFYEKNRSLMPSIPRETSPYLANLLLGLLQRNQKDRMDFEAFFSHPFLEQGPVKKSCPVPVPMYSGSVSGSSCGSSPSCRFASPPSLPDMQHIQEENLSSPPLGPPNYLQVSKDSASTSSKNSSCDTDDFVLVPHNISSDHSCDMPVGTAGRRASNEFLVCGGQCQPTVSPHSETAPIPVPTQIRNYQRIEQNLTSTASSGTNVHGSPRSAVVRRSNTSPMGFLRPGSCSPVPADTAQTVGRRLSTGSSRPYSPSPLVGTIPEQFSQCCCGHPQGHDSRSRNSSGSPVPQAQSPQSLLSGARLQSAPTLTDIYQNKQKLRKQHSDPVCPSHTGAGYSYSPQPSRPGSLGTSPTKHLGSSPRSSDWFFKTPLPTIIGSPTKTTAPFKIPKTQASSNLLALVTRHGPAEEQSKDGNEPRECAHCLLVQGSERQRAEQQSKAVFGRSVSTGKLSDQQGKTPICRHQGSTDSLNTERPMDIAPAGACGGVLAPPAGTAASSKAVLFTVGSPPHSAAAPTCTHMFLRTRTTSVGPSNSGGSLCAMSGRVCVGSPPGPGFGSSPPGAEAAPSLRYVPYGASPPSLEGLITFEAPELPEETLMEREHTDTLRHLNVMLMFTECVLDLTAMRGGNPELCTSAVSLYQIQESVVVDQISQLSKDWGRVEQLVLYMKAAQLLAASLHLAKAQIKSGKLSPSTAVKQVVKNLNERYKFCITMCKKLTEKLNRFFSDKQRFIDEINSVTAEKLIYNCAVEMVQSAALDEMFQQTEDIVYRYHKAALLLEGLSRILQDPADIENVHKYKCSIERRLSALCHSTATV
Chain of UniProt Q15059 (whole entry, unmodified, looked up): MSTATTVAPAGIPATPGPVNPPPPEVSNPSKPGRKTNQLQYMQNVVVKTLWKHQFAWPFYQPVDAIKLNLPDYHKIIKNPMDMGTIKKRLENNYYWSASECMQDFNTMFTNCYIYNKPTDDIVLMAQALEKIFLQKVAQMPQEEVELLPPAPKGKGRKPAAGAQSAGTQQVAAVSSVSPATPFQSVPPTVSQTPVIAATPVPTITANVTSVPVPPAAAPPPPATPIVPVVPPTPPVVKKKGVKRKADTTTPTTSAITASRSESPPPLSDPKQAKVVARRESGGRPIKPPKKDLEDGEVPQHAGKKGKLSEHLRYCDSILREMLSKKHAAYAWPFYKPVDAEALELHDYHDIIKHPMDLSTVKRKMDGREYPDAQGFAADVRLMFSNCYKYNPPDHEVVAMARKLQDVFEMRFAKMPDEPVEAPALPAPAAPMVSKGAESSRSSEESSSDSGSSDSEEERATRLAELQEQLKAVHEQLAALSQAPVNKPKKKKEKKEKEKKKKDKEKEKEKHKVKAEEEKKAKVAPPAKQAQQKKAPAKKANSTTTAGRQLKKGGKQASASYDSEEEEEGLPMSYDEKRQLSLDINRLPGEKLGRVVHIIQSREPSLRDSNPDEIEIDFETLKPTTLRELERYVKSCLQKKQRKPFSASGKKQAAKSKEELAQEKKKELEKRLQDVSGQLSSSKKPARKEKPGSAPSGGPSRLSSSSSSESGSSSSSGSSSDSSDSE

The Emax of `Cc1ccc2c(C(C[N+](=O)[O-])c3cccs3)c(-c3ccccc3)[nH]c2c1` (stereo not drawn) is reported as 56.6 ± 0.99% (CNR1 (Homo sapiens, UniProt P21554, Y397F); Gαi1-γ2 dissociation, BRET).
`Nc1ccn([C@@H]2O[C@H](COP(=O)(O)OP(=O)(O)OP(=O)(O)O)[C@@H](O)[C@H]2O)c(=O)n1` has a Vmax of 0.91 product fraction (RNA-directed RNA polymerase PB1, with PA and PB2 (Influenza B virus, UniProt Q5V8Y6); single-nucleotide incorporation, substrate).
`COC1CN([C@H]2CC[C@H]([C@@H](C)n3c(C)c(C(=O)NCc4c(SC)cc(C)[nH]c4=O)c4ccccc43)CC2)C1` gave a kon of 310000 M⁻¹ s⁻¹ (EZH2; binding, TR-FRET; together with: H3K27me3 peptide).
`CC(C)CC(C(=O)N1CC2(CC1C#N)C(=O)Nc1ccccc12)N(C)C(=O)c1cc2c(F)cc(F)c(F)c2[nH]1` (stereo not drawn) has a Hill slope of -0.33 (Caspase-9 (CASP9, Homo sapiens, UniProt P55211)).
The residence time of `COC1CN([C@H]2CC[C@H]([C@@H](C)n3c(C)c(C(=O)NCc4c(Cl)cc(C)[nH]c4=O)c4ccccc43)CC2)C1` is reported as 162 min (EZH2; binding, TR-FRET; together with: H3K27me3 activating peptide).
Under “bias factor (ΔΔlog(Emax/EC50))”, `CCCCCn1cc(C(=O)c2cccc3ccccc23)c2ccccc21` is recorded as 0.12 (CNR2 (Homo sapiens, UniProt P34972); agonist, BRET; baseline: Gαi1 over β-arrestin 2, reference agonist).
The Emax of `COc1cc(C2C(NC(=O)c3ccc(NC(=O)OC(C)(C)C)cc3)(C(=O)O)C(c3ccc(OC(=O)c4cccs4)c(OC)c3)C2(NC(=O)c2ccc(NC(=O)OC(C)(C)C)cc2)C(=O)O)ccc1OC(=O)c1cccs1` (stereo not drawn) is reported as 98.9 ± 2.63% (GLP1R; cAMP production, agonist).
For `CC[C@H](C)[C@H](NC(=O)[C@H](Cc1ccccc1)NC(=O)[C@H](CCC(=O)O)NC(=O)[C@H](CCCCN)NC(=O)[C@H](C)NC(=O)[C@H](C)NC(=O)[C@H](CCC(N)=O)NC(=O)CNC(=O)[C@H](CCC(=O)O)NC(=O)[C@H](CC(C)C)NC(=O)[C@H](Cc1ccc(O)cc1)NC(=O)[C@H](CO)NC(=O)[C@H](CO)NC(=O)[C@@H](NC(=O)[C@H](CC(=O)O)NC(=O)[C@H](CO)NC(=O)[C@@H](NC(=O)[C@H](Cc1ccccc1)NC(=O)[C@@H](NC(=O)CNC(=O)[C@@H](N)CCC(=O)O)[C@@H](C)O)[C@@H](C)O)C(C)C)C(=O)N[C@@H](C)C(=O)N[C@@H](Cc1c[nH]c2ccccc12)C(=O)N[C@@H](CC(C)C)C(=O)N[C@H](C(=O)N[C@@H](CCCCN)C(=O)NCC(=O)N[C@@H](CCCNC(=N)N)C(N)=O)C(C)C`, the Emax was 84.8% (GLP1R; cAMP, agonist).
`CCC[C@@H](C(=O)c1ccccc1)N1CCCC1` — result for “maximal inhibition rate (kapp)”: 1.44 s⁻¹ (SLC6A3 (Homo sapiens, UniProt Q01959); transporter current, inhibitor; together with: dopamine 30 µM).
`Cc1sc2c(c1C)C(c1ccc(Cl)cc1)=N[C@@H](CC(=O)OC(C)(C)C)c1nnc(C)n1-2` has a TΔS of 18.5 kJ/mol (Bromodomain-containing protein 3, BD2 (BRD3, Homo sapiens, UniProt Q15059); isothermal titration calorimetry; 15 °C, reverse titration).
`CC[C@H](C)[C@H](NC(=O)[C@H](CO)NC(=O)[C@H](CC(N)=O)NC(=O)[C@H](CC(C)C)NC(=O)[C@H](Cc1ccc(O)cc1)NC(=O)[C@H](CCCCN)NC(=O)[C@H](CCCCN)NC(=O)[C@@H](NC(=O)[C@H](C)NC(=O)[C@H](CCSC)NC(=O)[C@H](CCC(N)=O)NC(=O)[C@H](CCCCN)NC(=O)[C@H](CCCNC(=N)N)NC(=O)[C@H](CC(C)C)NC(=O)[C@H](CCCNC(=N)N)NC(=O)[C@@H](NC(=O)[C@H](Cc1ccc(O)cc1)NC(=O)[C@H](CC(N)=O)NC(=O)[C@H](CC(=O)O)NC(=O)[C@@H](NC(=O)[C@H](Cc1ccccc1)NC(=O)[C@@H](NC(=O)[C@H](C)NC(=O)[C@H](CC(=O)O)NC(=O)[C@H](CO)NC(=O)[C@@H](N)Cc1c[nH]cn1)C(C)C)[C@@H](C)O)[C@@H](C)O)C(C)C)C(=O)N[C@@H](CC(C)C)C(=O)N[C@@H](CC(N)=O)C(N)=O` gave an Emax of 61 ± 6% (ADCYAP1R1 (Homo sapiens, UniProt P41586); calcium mobilization, agonist, Fluo-8 AM; COS-7; AUC over 2 min).
For `COc1cc(C)[nH]c(=O)c1CNC(=O)c1c(C)n([C@H](C)[C@H]2CC[C@H](N3CC(OC)C3)CC2)c2ccccc12`, the residence time was 150 min (EZH2; binding, jump dilution; together with: H3K27me3 activating peptide).
For `COc1ccccc1C(C[N+](=O)[O-])c1c(-c2ccccc2)[nH]c2ccccc12` (stereo not drawn), the Emax was 80.3 ± 2.54% (CNR1 (Homo sapiens, UniProt P21554, Y172A); Gαi1-γ2 dissociation, BRET).
For `Nc1ccc(/C=C/C(=O)N2CCc3c(oc4c(-c5ccc(F)cc5)cc(-c5ccc(C(=O)N6CCC(F)(F)CC6)cn5)cc34)C2)cn1`, the remaining binding was 81% (ULK2 (Homo sapiens, UniProt Q8IYT8); binding, competition with immobilised ligand; 1 µM).
`CSc1cc(C)[nH]c(=O)c1CNC(=O)c1c(C)n([C@H](C)C2CCN(CC(F)(F)F)CC2)c2ccccc12` gave a residence time of 660 min (EZH2; binding, TR-FRET).

For quick reference, copied from above:
`Cc1sc2c(c1C)C(c1ccc(Cl)cc1)=N[C@@H](CC(=O)OC(C)(C)C)c1nnc(C)n1-2` has a TΔS of 18.5 kJ/mol (Bromodomain-containing protein 3, BD2 (BRD3, Homo sapiens, UniProt Q15059); isothermal titration calorimetry; 15 °C, reverse titration).
`CC[C@H](C)[C@H](NC(=O)[C@H](CO)NC(=O)[C@H](CC(N)=O)NC(=O)[C@H](CC(C)C)NC(=O)[C@H](Cc1ccc(O)cc1)NC(=O)[C@H](CCCCN)NC(=O)[C@H](CCCCN)NC(=O)[C@@H](NC(=O)[C@H](C)NC(=O)[C@H](CCSC)NC(=O)[C@H](CCC(N)=O)NC(=O)[C@H](CCCCN)NC(=O)[C@H](CCCNC(=N)N)NC(=O)[C@H](CC(C)C)NC(=O)[C@H](CCCNC(=N)N)NC(=O)[C@@H](NC(=O)[C@H](Cc1ccc(O)cc1)NC(=O)[C@H](CC(N)=O)NC(=O)[C@H](CC(=O)O)NC(=O)[C@@H](NC(=O)[C@H](Cc1ccccc1)NC(=O)[C@@H](NC(=O)[C@H](C)NC(=O)[C@H](CC(=O)O)NC(=O)[C@H](CO)NC(=O)[C@@H](N)Cc1c[nH]cn1)C(C)C)[C@@H](C)O)[C@@H](C)O)C(C)C)C(=O)N[C@@H](CC(C)C)C(=O)N[C@@H](CC(N)=O)C(N)=O` gave an Emax of 61 ± 6% (ADCYAP1R1 (Homo sapiens, UniProt P41586); calcium mobilization, agonist, Fluo-8 AM; COS-7; AUC over 2 min).
